# Experimental data gathered from unrelated publications.
# A part holds a random share of what one study measured. Substitutions count along the parent as printed.

# Block 1 — technique: RNA Bind-n-Seq; form: RNA; matrix: in vitro; tested at: 20 nM; notes: 6-mer, flanks averaged, single round; together with: 150 mM KCl; baseline: input library; direction: higher = stronger binding
# Target: TAR DNA-binding protein 43, full length, His tag (TARDBP, Homo sapiens, UniProt Q13148, residues 1-414)
Sequence,6-mer enrichment (R)
UCGGCU,0.767
GACAGU,0.892
AGUGUG,1.9
CAUUUA,0.594
GUAGAU,0.868
UGUUAC,0.641
CGGCGU,1.33
CUGCGU,0.825
AGGUUA,0.72
GACGUC,0.821
GCAGUC,0.829
UAGUGU,0.939
AACGUC,0.582
AGGGGC,4.14
CGAACC,0.64
UUGUAA,0.655
UUUGCG,0.872
ACUUAU,0.591

# Block 2 — technique: universal PBM; form: double-stranded DNA, one strand shown; matrix: in vitro; tested at: 600 nM; direction: higher = stronger binding
# Target: Sal-like protein 4, full length isoform A (SALL4, Homo sapiens, UniProt Q9UJQ4, residues 1-1053)
# Sequence of UniProt Q9UJQ4 (whole entry, looked up): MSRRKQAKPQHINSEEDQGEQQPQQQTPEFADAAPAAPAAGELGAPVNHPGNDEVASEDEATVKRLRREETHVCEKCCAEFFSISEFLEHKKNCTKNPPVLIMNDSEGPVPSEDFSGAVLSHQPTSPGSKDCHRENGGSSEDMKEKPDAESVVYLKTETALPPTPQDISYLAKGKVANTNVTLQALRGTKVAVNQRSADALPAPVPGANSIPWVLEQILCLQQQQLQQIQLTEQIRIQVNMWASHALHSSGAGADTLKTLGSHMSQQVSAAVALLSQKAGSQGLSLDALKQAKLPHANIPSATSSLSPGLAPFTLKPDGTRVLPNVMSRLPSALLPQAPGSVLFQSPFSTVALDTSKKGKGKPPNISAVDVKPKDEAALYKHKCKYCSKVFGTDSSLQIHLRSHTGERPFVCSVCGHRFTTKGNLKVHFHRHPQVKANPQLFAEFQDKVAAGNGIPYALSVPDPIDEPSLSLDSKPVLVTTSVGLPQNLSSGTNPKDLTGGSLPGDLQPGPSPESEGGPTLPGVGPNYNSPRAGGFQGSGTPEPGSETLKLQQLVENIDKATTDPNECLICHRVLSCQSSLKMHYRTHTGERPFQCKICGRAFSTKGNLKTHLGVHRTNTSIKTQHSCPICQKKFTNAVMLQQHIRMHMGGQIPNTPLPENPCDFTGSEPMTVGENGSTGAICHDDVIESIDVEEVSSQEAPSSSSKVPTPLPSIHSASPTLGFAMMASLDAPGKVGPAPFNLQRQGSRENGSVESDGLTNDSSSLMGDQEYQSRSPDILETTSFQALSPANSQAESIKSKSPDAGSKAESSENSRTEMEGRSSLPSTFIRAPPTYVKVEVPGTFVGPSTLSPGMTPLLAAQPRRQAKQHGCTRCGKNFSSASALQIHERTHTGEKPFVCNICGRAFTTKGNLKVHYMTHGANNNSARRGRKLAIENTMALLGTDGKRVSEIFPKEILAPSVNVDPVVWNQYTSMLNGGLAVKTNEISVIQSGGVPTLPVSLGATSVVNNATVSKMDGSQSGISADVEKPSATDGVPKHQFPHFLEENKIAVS
# Notes: 8-mer, flanks averaged, mean of replicates
Sequence,E-score
GCGAGTCA,-0.129
GTCGGAGA,-0.161
CGGTTAGA,-0.193
AAGCGTTA,0.0343
CGGCACTC,-0.222
GGTAAAAC,0.0901
CCTCAGAC,-0.115
GGCCCGGA,-0.348
AAGCACGG,-0.274
GGATGCAA,0.107
AACGGTGA,-0.156
CGGTAATC,-0.0877
CTCACTTC,-0.225
GGCCGAGA,-0.227
ATGGCACC,-0.17
CGCACCCG,-0.336
GAGCCCTC,-0.299
GAGTTTTA,0.182
CATAAGGA,0.102
CAAAACCA,0.211
AGCTACTG,-0.0883
GCCAGTGA,-0.215
GTCAGGAC,-0.197
AGCAGTAC,0.0345
ATACCAAC,0.136

# Block 3 — target: CCNE2, cyclin fold, Cln2 fusion (human); technique: yeast growth competition, sequencing; matrix: yeast; notes: strong parent motif; baseline: not given; direction: higher = stronger binding
# Starting sequence: SCAPER docking peptide (human); SNARRSLNFGGST
Variant,normalised enrichment score
SNARRSLNFPGST [G10P],1.1
SNARRSNNFGGST [L7N],-0.000111
SNARDSLNFGGST [R5D],-0.241
SNARRDLNFGGST [S6D],0.247
SNARRFLNFGGST [S6F],1.86
SNARRSMNFGGST [L7M],0.782
SNARRCLNFGGST [S6C],2.94
SNARRSLNFGVST [G11V],1.68
SNARRSINFGGST [L7I],1.11
MNARRSLNFGGST [S1M],1.29
SNARRSLVFGGST [N8V],0.529
SNARASLNFGGST [R5A],-0.0102
SNARRSLNFGHST [G11H],0.721
SNARCSLNFGGST [R5C],0.11

# Block 4 — technique: protein binding microarray; form: double-stranded DNA, one strand shown; matrix: in vitro; tested at: not given; baseline: not given; direction: higher = stronger binding
# Target: Histone acetyltransferase KAT6A, winged helix 1, GST fusion (KAT6A, Homo sapiens, UniProt Q92794, residues 1-85)
# Notes: 8-mer, flanks averaged, mean of 2 arrays, mostly near background
# Construct (chain): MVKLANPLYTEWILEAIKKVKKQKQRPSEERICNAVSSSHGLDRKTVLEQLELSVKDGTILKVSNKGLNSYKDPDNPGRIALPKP
Sequence,E-score
CGATTGAA,-0.0704
AGAAATCG,-0.214
AGGGTTTA,-0.162
ACAGGCCC,-0.0254
ACAGATAT,-0.181
AGAGATCA,-0.261
TGCCCACA,-0.147
ATCACGAC,-0.131
CTAAGCTA,-0.136
CACGCGGA,0.302
CGAACCTA,0.0783
CCCAGGAG,-0.251
GGCCTGGA,-0.0838
CGCGGTAG,0.361
AAGCGCCC,0.363
CGCATAAA,0.0468
CTGTTGCC,-0.0709
CGTGTACA,0.0519
ACTGTCGA,-0.218

# Block 5 — technique: RNA Bind-n-Seq; form: RNA; matrix: in vitro; tested at: 365 nM; baseline: no-protein control; direction: higher = stronger binding
# Target: RNA binding protein fox-1 homolog 2, RRM domain, GST-SBP tag (RBFOX2, Homo sapiens, UniProt O43251-10, residues 100-194)
# Notes: natural RNA segment, single round, ends assumed
Sequence,RBNS enrichment (R)
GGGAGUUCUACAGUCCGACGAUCUCCUGCCAGCGCAUCGGGGAGGGGUGCUCCUGAGGCCAGGCAUGGCCACCACGUGACGCUGUUCUUAGUUCACUAAUGUUAGCCUUAUUUAGGACAAAGUCAGCCAGACAUGGAAUUCUCGGGUGCCAA,0.867
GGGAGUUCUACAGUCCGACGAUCCUGACUUCUGCGGACAGCAAUUUGGUAGGUAGUGAUUAACUGUGAAUAAACGUACAAUGAGUUCUUACUGUGUGUCUUCAUUUCUCCCUGAUGGUGUUUUCAGUUUAUUUUGGAAUUCUCGGGUGCCAA,0.545
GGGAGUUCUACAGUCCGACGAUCUAGCCACUGGCCAAGACUUGCUGACCUUCUAUUUUUUCUAAUUUUCCUUAAUAAACAGAUUCAUUUAGUUAUUUCAUAUAGGCAUCAAUAUGCAUUUAGCUUUAGUUUACUGGAAUUCUCGGGUGCCAA,1.2
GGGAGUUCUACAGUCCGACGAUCCAUUUUCACUUCCAGUCUAAGCCAGUGGCUCCUGCCACUGCCCUCCCAUUACCUAGAUGGCACCUCCUUUGGUGAAACCACGGCCAAUGUUCCUUAGCUGCACCAGGCCCUGGAAUUCUCGGGUGCCAA,0.436
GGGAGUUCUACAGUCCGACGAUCGGCAAAUUCUUGCUAUGUAACUCAGGCUGGCAUCAAAGUCUUAGUCUUUCUGUUGCUGGUUAUUGAGUGUUGAAAUUAUUGACCAAAAACCUUUCUUUAGUGAAUGUCAAUGGAAUUCUCGGGUGCCAA,0.485
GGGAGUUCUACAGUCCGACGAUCCUUUUUGCUCAGUUUUUAUAUGCCAGAUACAGAGAAUUUGUAGCGGUUAUUUUUGUAUGAUCUAGUAACUUGCAAACAGACCAAAUGGAUGAGAGGCGGGGACCGUGCAGUGGAAUUCUCGGGUGCCAA,1.38
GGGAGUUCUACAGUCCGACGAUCUUUUUGUGUUAGUGUAUCAUAUAAUUGAAUUUGAACAAGAUACAUAUUUUUCUGCAUACAAAUUUAUGAAGCUGGAGUCUACCAAACACAGCUUUAGUCACAAAAGUUAGUGGAAUUCUCGGGUGCCAA,1.38
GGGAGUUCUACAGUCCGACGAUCGUCAUUUCAAAGAUUUACUGUAUGUAUAGUUGAUUUUGUGGACUGAAUUUAAUGCUUCCAAAUGUUUGCAGUUACCAAACAUUGUUAUGCAAGAAAUCAUAAAAUGAAGAUGGAAUUCUCGGGUGCCAA,2.12
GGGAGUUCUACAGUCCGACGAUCUGCAGUGUCAUCUUGAUUGUAUAUUGAAAAUACUGUGUAAUGAUGAAAUCAUAUUAUAAAUAUUUCAACUAAUUUUACUCUGAAUUUGUUUAUUAAAAGCUUUUUGAACAUGGAAUUCUCGGGUGCCAA,1.02
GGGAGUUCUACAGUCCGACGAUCCACCGUCACACACGCCCCUUUUGUGUUUUGGUUCAAGUUUCUCAGAGCCCCUCAGAGCUUCUACAUCUGUGCAUCAGAAAUCUCACAGCCUUCUCAUGCUGCCGGCUCAUUGGAAUUCUCGGGUGCCAA,0.625
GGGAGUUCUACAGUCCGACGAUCCCCUGGGAACUGGGGACCAACCCACCCCGGCAGCACAGUGCCUUUUUUUCUCCUGCUCUGAGUCAGGUGGGCGUCCCCUCUAGAUCCAGGUCUGGGCAGGGGUCUGAUGGUGGAAUUCUCGGGUGCCAA,0.424
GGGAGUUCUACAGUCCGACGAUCAGUAGCUUCCUGCCUGGGAGAUGGCUCUCUCUGCAGAAGUCUGGUGUUUUAGCCUUCAGGUGUUUGGUUUUGUAUGUGCUCCCUCAUUUUAAACAUUAAACCAAACUUCUUGGAAUUCUCGGGUGCCAA,0.455

# Block 6 — technique: protein-binding microarray; form: double-stranded DNA, one strand shown; matrix: in vitro; tested at: 2200 nM top; notes: 60-bp whole probe; together with: salmon DNA 0.4 mg/ml; baseline: random background probes; direction: higher = stronger binding; all sequences stand within: GCCTAGCAC … GTCTTGATTCGCTTGACGCTGCTG
# Target: Interferon regulatory factor 7, full length, phosphomimetic (IRF7, Homo sapiens, UniProt Q92985, residues 1-503, S471D/S472D/S475D/S476D/S477D/S483D/S484D/S487D)
# Construct (chain): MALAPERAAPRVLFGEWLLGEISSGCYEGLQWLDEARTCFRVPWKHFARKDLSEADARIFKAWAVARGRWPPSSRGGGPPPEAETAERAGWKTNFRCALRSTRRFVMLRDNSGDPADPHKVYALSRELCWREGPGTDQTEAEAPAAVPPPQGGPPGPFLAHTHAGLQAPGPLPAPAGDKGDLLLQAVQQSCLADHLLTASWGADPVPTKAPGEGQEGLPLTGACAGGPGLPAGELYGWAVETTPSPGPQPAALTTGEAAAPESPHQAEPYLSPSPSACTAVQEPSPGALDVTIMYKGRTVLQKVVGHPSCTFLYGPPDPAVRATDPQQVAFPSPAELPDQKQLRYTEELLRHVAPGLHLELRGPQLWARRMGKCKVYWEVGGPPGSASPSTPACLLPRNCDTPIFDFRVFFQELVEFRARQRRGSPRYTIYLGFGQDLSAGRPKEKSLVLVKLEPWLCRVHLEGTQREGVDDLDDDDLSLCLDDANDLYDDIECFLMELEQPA
Sequence,fitted relative affinity [z-score]
GACGGTCTCGGTATCGGGCCGTGCTAG,-0.249
TCCCATTCTGAATTCGAATGGTGCTAG,1.83
GACGGTTCTCTTTTCCTGACGTGCTAG,1.96
TCAGATTTCCCCACCATACTGTGCTAG,1.66
GACGGACTGCTTCTCCTAACGTGCTAG,0.567
TTCACTTTCTTTAACTCATTGTGCTAG,2.32
TCATCCCTCGGGTTGCGGACTGTGCTA,1.24
CTGGGGGCAGTTTCATGGCCGTGCTAG,-0.519
TTAGGGCTGGGACTGGGTTAGTGCTAG,-0.931
GACGGTATCGGTTTCGGGAAGTGCTAG,2.79
GACGGTCTACTTATCCTGACGTGCTAG,0.625
GTGTTTCTCAACCATTTTGTTGTGCTA,1.9
ATGGGTATGGCCTATTTATATGTGCTA,-0.178
TTAGATATCTGTTTCGATTAGTGCTAG,3.55
TTAGGTTTCAGTCTCGGTTAGTGCTAG,2.19
TTAGGTATCGACTATCGGGTAGTGCTA,0.185
GACGATATCAGTCTCGAAACGTGCTAG,0.514
GACTGTTTCGGTATCGGGACGTGCTAG,5.9
TTAGATTTCAGTTTCGATAAGTGCTAG,4.57
TTAGATCCCAGTTTCGATTAGTGCTAG,6.01
GACGGACTGAGTTTCGGGACGTGCTAG,2.08
GAGGGTCTCGGTCTCGGGACGTGCTAG,-0.573
TTTGATATCAGTCTCGATTAGTGCTAG,0.707
TTAGTACTGGACACTGGGTTAGTGCTA,-0.0177
TTAGGACTGGGTTTCTGTTAGTGCTAG,0.867

# Further values, each from its own experiment
Substance,target,test,test system,setting,scale,quantity,result
"PhoQ, residues 284 288 289 292 302 303 SVHLDV","PhoP, residues 12 14 15 18 19 IQFRS (Escherichia coli, UniProt P23836)","Sort-seq, measured: YFP reporter",E. coli,"PhoQ-PhoP variant library, together with: 10 µM Mg2+","baseline: high Mg2+ state, higher = stronger signaling",fold induction,7.91

# Repeated from above (block 3):
Variant,normalised enrichment score
SNARRSLVFGGST [N8V],0.529
SNARDSLNFGGST [R5D],-0.241
MNARRSLNFGGST [S1M],1.29
SNARRSLNFGHST [G11H],0.721
SNARCSLNFGGST [R5C],0.11
SNARRDLNFGGST [S6D],0.247
SNARRSMNFGGST [L7M],0.782
SNARRSLNFGVST [G11V],1.68
SNARRCLNFGGST [S6C],2.94
SNARRSNNFGGST [L7N],-0.000111
SNARRSINFGGST [L7I],1.11
SNARRFLNFGGST [S6F],1.86
SNARASLNFGGST [R5A],-0.0102
SNARRSLNFPGST [G10P],1.1
